Assay results collected from several papers.
Parts stem from different laboratories: compare values within a part only.

Block 1 — method: protein-binding microarray; form: double-stranded DNA, one strand shown; medium: in vitro; tested at: 940 nM top; notes: 60-bp whole probe; together with: salmon DNA 0.4 mg/ml; baseline: random background probes; direction: higher = stronger binding; constant ends, left off below: GCCTAGCAC … GTCTTGATTCGCTTGACGCTGCTG
Target: Interferon regulatory factor 5, full length, phosphomimetic (IRF5, Homo sapiens, UniProt Q13568-2, residues 1-514, S451D/S453D/S456D/S462D)
Oligonucleotide	fitted relative affinity
AAGCTCCTATCTTATGATATAGTGCTA	-0.0545 z-score
GACGGACTGTTTCTCCTGACGTGCTAG	0.549 z-score
TCAAGGTTCAAGTTTACCACTGTGCTA	-0.531 z-score
AGAATGATCTTCCTTCATGGCGTGCTA	0.681 z-score
CAAAACATCATTGTCATATAGTGCTAG	0.0738 z-score
TCAATTTCAGTTTTCTTACTGTGCTAG	1.68 z-score
CCATCTCAGCCTCCCCAAGGGTGCTAG	0.388 z-score
CATACAATTTCAGATTCCAGTGTGCTA	0.894 z-score
GACGGCTTCGACACTGGGGACGTGCTA	-0.313 z-score
TTAGGACTCGACTATCGGTTAGTGCTA	-0.0228 z-score
TTAGGACTGGTCTTTCGGTTAGTGCTA	1.02 z-score
TCAGGCTTTCCTTTATGACTGTGCTAG	0.0971 z-score
GACGGTTCCGTTTTCGGGACGTGCTAG	1.05 z-score
TTAGATTTCGGGTCTGGATTAGTGCTA	1.26 z-score
TTAGGACTGCTTTCCCTTTAGTGCTAG	-0.127 z-score
GACGGTCTCGATTTCGGGACGTGCTAG	2.93 z-score
CTAGGTTTCGGGACTGGGTTAGTGCTA	6.86 z-score
GTCGGTATCGGTATCGGGACGTGCTAG	11.3 z-score
TTAGGTATAGACTATCGGTTAGTGCTA	-0.116 z-score
TTAGGACTGGGTTTCGGTTCGTGCTAG	6.03 z-score
GACGGACTGGGTGTCGGGACGTGCTAG	-0.54 z-score
GACGGTTTCCTTGCCCTGACGTGCTAG	1.06 z-score
TTAGCTATCGGTCTCGGTTAGTGCTAG	2.76 z-score
TGCTCCTTCTGACATCAACCCGTGCTA	0.695 z-score
CTAGTTGTGATTCTTTCGATGTGCTAG	1.4 z-score

Block 2 — method: protein binding microarray; form: double-stranded DNA, one strand shown; medium: in vitro; tested at: not given; baseline: not given; direction: higher = stronger binding
Target: Histone acetyltransferase KAT6A, winged helix 2, GST fusion (KAT6A, Homo sapiens, UniProt Q92794, residues 85-181)
Notes: 8-mer, flanks averaged, mean of 2 arrays, mostly near background
Construct (chain): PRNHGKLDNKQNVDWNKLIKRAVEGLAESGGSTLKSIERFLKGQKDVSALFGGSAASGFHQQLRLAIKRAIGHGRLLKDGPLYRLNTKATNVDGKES
Oligonucleotide	E-score
ACTTATTC	-0.0828
AGGAGCAT	0.0117
AGATCTAT	-0.0508
ATAGGGAG	-0.16
CACACGGC	0.103
ATCTCGCG	0.134
CAGGAGAG	0.0678
AATAATCT	0.00819
AAGGCTAG	-0.0493
ATCTTTGC	0.116
AATCTATG	0.131
CGGTGTGC	-0.0597
CCGTAGCG	-0.0743
GTAACCTA	-0.0967
ATAAATAG	-0.0543
AATGAGAG	-0.184
ACTCATCA	-0.101
CGTCGGAC	-0.0384
AAGGAATT	-0.137

Block 3 — method: RNA Bind-n-Seq; form: RNA; medium: in vitro; tested at: 365 nM; baseline: no-protein control; direction: higher = stronger binding
Target: RNA binding protein fox-1 homolog 2, RRM domain, GST-SBP tag (RBFOX2, Homo sapiens, UniProt O43251-10, residues 100-194)
Notes: natural RNA segment, single round, ends assumed
Constant ends, left off below: GGGAGUUCUACAGUCCGACGAUC … UGGAAUUCUCGGGUGCCAA
Target sequence (chain): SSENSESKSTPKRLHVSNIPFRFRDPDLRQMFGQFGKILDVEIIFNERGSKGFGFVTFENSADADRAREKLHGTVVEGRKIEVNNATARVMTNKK
Oligonucleotide	RBNS enrichment (R)
CCAGGUCCUUGGGAUGGUUGACCCCUGCCUCUGCAGUAGCCUUUUGUGAGUCUGCUAAGGUAGCUCUCACACACCUCGGCUCUGGGGUUGAUACCUGAGCCUGCAAUAGA	0.223
GAAAAUGAACCAAAUGUCAUUACUUUUGUCUUAAAGAAAAGUCUAUUUCAAGAAUAUGAACAGCAGUUUUCCUUGUACAUGUCACCUUUUUUCACAUUUUCAUUAAUCAG	0.335
CACACCUGUAGUCCCAACUAUUCGGCAGGCUGAGGCAGUAGAAUCGCUUGAACCUGGGAGGCGGAGAUUGCAGUGAACCAAGAUCGGGCCACUGCACUCCAGCUUGGGUG	0.355
UCAUGAAAUGGUGGGUCCUUGGAAACCUCCUUUCCGUUCAGCUCUGCCUCUGUUCUUUCAACUCCUUUGAGGCUCAAAAAAAACACAAAGAUCAGAAGCCUUCAGAUAGA	0.395
GCUUCAAGAAUGUUGAUGAUGAUGAUAUAGAAUUGUGGCUUUAGUAGCACAGAGGAUGCCCCAACAAACUCAUGGCGUUGAAACCACACAGUUCUCAUUACUGUUAUUUA	0.898
GAAGGAUGAAGGGCCCGAGAACAUGGCCUAAGGGCCACAUCCCACUGCCACCCUUGACGCCCUGCUCUGGAUAACAAGACUUUGACUUGGGGAGACCUCUACUGCCUUGG	0.345
GUAGCUCAGUCAUAUUGAACAGGGAGGUGGGGAUGCUGUUGAUGGGCUGUUAAAUCGGAAAGGAUGUGGCUUCAGUGCCCUCAGGAACCCUUAGGCUCCAAAAAUUUGCC	1.32
UUGGAUUCAAGUUUAAUUAGCUAAUAACCAUGGAGAUUGUUUUACAACUUUGUGAUAUGGUCAAGCUCCCGUUUAAGAAAUGGGAGUCUGUUGUUGCAGAUCAGUAAUUG	0.277
AAAAAAUUACCCAGAUUGGCUCCAUGGAAAAGGAGGAACAGCGUUUCCGUAAAAUUGACUUUGUACUCUGAAAACGUCAAUUUAUAUUGAACUUGGAGGAGUUUGGCAAA	0.318
CUUGCAAUUGCUUUGUCGUGGCAAGUGUGUUGUUCUACUCUCUCUUGUUUGAAACAAUGCUUGACAAUUCAGAAAUUAACCACUGAUGUGCUGUGGAAUGUGAUGCUUGU	8.59
UUGUGAACUGAGUUUGAAACAUGCCUGCUUUGGAGAGACUGGGGCAGUGAACACCCCAGCAGCCUUUCAGCAAAUUGGCUUUGGACAUGGACCCUUCUCAGCCUGUACCA	0.683
AAACAAGCUGCUCUUUAUAAUAUGCACCUUUUAAAAAAUUAGAAUAUUUUACUGGGAAGACGUGUAACUCUUUGGGUUAUUACUGUCUUUACUUCUAAAGAAGUUAGCUU	0.448

Block 4 — method: universal PBM; form: double-stranded DNA, one strand shown; medium: in vitro; tested at: 600 nM; direction: higher = stronger binding
Target: Sal-like protein 4, full length isoform A (SALL4, Homo sapiens, UniProt Q9UJQ4, residues 1-1053)
Chain of UniProt Q9UJQ4 (whole entry, looked up): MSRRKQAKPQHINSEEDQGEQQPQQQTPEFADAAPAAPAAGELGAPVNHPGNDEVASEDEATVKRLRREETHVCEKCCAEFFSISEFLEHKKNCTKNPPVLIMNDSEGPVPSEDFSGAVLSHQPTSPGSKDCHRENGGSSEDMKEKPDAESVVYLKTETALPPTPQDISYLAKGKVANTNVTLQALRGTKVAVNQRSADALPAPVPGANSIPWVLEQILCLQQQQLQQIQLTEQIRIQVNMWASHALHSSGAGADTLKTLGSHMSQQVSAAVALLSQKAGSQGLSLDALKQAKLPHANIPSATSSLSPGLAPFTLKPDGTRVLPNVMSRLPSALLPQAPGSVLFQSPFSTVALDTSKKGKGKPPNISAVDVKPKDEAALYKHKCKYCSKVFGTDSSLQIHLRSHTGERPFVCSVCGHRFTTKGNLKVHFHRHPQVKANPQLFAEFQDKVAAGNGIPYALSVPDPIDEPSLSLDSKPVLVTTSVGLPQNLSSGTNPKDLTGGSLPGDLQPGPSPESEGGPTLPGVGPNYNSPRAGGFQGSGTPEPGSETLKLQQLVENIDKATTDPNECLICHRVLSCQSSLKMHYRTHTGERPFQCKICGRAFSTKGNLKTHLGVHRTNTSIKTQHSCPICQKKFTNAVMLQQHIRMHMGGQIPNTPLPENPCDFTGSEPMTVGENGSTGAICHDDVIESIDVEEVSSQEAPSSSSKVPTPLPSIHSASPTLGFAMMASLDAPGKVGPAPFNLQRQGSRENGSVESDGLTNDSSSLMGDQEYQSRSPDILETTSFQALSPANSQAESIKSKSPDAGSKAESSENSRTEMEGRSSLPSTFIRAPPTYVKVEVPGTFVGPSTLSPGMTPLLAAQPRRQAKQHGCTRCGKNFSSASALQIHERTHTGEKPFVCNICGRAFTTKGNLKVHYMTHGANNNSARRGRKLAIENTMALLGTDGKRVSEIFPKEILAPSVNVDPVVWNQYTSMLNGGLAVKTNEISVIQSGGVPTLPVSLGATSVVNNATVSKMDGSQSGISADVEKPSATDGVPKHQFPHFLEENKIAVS
Notes: 8-mer, flanks averaged, mean of replicates
Oligonucleotide	E-score
AATGCATG	0.127
AGTTAATG	0.296
ACTTGCTA	0.00793
CACTGACA	0.0595
GCCTTGAA	-0.0999
TATTCTGA	0.191
ACCGTTTA	0.0808
GGAGTGAC	-0.141
CGGCTACG	-0.374
CAGTCTCC	-0.198
CTCGGCAA	-0.128
TCTACTAA	0.214
CACTGGCC	-0.277
GCTCGTCA	-0.167
ATCTATTA	0.323
AAATTTAG	0.273
GGGAGACA	-0.221
GCTATGCA	-0.0248
AACCCTGC	-0.196
GGTAATCA	0.0598
ACGACCAC	-0.153

Some of these lines once more (block 4):
Oligonucleotide	E-score
ACGACCAC	-0.153
TATTCTGA	0.191
AAATTTAG	0.273
AATGCATG	0.127
ATCTATTA	0.323
GGAGTGAC	-0.141
GGTAATCA	0.0598
ACCGTTTA	0.0808
CACTGGCC	-0.277
